Assay results collected from several papers.
± marks the error that the study gave.

`O=C(N/N=C/c1cc[n+](Cc2ccccc2)c2ccccc12)c1ccc2ccc(C(=O)N/N=C/c3cc[n+](Cc4ccccc4)c4ccccc34)nc2n1` has a ΔTm of 17.3 ± 0.5 °C (22CTA telomeric G4-DNA antiparallel; FRET melting; 1 µM, K10 buffer, DNA 0.2 µM).
For `C=CC(=O)Nc1cccc(Cn2ncc3cnc(Nc4cnn(CCOC)c4)nc32)c1`, “percent of control” read 95% (PAK3 human; binding, KINOMEscan; 100 nM; lower = stronger binding).
For `C[n+]1cccc2cc(/C=N/NC(=O)c3cncc(C(=O)N/N=C/c4ccc5c(ccc[n+]5C)c4)n3)ccc21`, the ΔTm was 13.8 ± 0.3 °C (22CTA telomeric G4-DNA antiparallel; FRET melting; 1 µM, K10 buffer, DNA 0.2 µM).
With `CNS(=O)(=O)Nc1nccc(Cc2c(C)c3ccc(Oc4ncccc4F)cc3oc2=O)c1F` the IC50 was 5.46 nM (A101D; cell viability; 7 days).
`C=CC(=O)N1[C@H](c2ccc3c(c2)OCO3)c2[nH]c3ccccc3c2C[C@@H]1C(=O)N1CCN(C)CC1` gave a relative co-enrichment of 130% (human cyclin E1 N112C-3xFLAG:CDK2; co-IP with TMT proteomics, measured: DDX5; concentration not given, P17844; relative to: wild type DMSO).
The remaining binding of `Nc1ncc(-c2cc(-c3cnn(CC(F)(F)F)c3)ncc2F)nc1C(=O)NC1CNCC(F)C1` (stereo not shown) is reported as 100% (WNK2; KINOMEscan; 1 µM; relative to: DMSO control).
`COC1CN([C@H]2CC[C@H]([C@@]3(C)Oc4c(Cl)cc(C(=O)NCc5c(SC)cc(C)[nH]c5=O)c(C)c4O3)CC2)C1`: “log2 fold change” 1.37 (RNA-seq, measured: HOMER1; human, whole blood; dose not given, 24 h; relative to: pretreatment baseline).
`C=C(NC(=O)c1csc(-c2nc3c(cc2O)-c2nc(cs2)C(=O)NC(C(C)O)C(=O)NC(=C(C)OC)c2nc(cs2)C(=O)NC2c4nc(cs4)C(=O)NC(COC(=O)c4c5c6c(cccc6n4O)COC(=O)C(OC4CC(C)(O)C(N(C)C)C(C)O4)C2OC5)c2nc-3cs2)n1)C(N)=O` (stereo not shown) gave a Cmax of 13500 ng/mL (cynomolgus monkey, male, plasma; intravenous infusion, 1.5 mg/kg twice daily, 0 to 30 h).
With `Cc1ccc(-c2ccc(C3CCCCC3)cc2)cn1` the hepatic clearance was 76 mL/min/kg (liver microsome stability; mouse liver microsomes; 1 µM).
`O=C(N/N=C/c1ccc(C[n+]2ccccc2)cc1)N/N=C/c1ccc(C[n+]2ccccc2)cc1` gave a ΔTm of 4.1 ± 0.3 °C (22CTA telomeric G4-DNA antiparallel; FRET melting; 1 µM, K10 buffer, DNA 0.2 µM).
`N#CCNC(=O)c1ccc([C@H]2[C@@H](F)[C@@H](F)C[C@@H](F)[C@H]2F)cc1` gave a hepatic clearance of 14 mL/min/kg (liver microsome stability; mouse liver microsomes; 1 µM).
`Cc1ncsc1-c1ccc(C(C)NC(=O)C2CC(O)CN2C(=O)C(NC(=O)CCCCCCCCCCN2CCCC(Nc3ncc(Cl)c(Nc4ccccc4S(=O)(=O)C(C)C)n3)C2)C(C)(C)C)cc1` (stereo not shown): “log2 fold change” -1.15 (22Rv1; RNA-seq, measured: ST20-AS1; concentration not given; relative to: DMSO).
Under “log2 fold change”, `CN1CCCNC(=O)c2cccc(c2)C(=O)NCCCN(C)CCCNc2cccc3c2C(=O)c2cccc(c2C3=O)NCCC1` is recorded as -0.51 (SAS; RNA-Seq, measured: MELK mRNA; 1 µM, 6 h; relative to: untreated cells).
